Experimental data gathered from unrelated publications.
Parts stem from different laboratories: compare values within a part only. Values joined by “and” are separate records of one study, mostly repeats; a detail may differ.
Chain of UniProt Q9NSY1 (whole entry, looked up): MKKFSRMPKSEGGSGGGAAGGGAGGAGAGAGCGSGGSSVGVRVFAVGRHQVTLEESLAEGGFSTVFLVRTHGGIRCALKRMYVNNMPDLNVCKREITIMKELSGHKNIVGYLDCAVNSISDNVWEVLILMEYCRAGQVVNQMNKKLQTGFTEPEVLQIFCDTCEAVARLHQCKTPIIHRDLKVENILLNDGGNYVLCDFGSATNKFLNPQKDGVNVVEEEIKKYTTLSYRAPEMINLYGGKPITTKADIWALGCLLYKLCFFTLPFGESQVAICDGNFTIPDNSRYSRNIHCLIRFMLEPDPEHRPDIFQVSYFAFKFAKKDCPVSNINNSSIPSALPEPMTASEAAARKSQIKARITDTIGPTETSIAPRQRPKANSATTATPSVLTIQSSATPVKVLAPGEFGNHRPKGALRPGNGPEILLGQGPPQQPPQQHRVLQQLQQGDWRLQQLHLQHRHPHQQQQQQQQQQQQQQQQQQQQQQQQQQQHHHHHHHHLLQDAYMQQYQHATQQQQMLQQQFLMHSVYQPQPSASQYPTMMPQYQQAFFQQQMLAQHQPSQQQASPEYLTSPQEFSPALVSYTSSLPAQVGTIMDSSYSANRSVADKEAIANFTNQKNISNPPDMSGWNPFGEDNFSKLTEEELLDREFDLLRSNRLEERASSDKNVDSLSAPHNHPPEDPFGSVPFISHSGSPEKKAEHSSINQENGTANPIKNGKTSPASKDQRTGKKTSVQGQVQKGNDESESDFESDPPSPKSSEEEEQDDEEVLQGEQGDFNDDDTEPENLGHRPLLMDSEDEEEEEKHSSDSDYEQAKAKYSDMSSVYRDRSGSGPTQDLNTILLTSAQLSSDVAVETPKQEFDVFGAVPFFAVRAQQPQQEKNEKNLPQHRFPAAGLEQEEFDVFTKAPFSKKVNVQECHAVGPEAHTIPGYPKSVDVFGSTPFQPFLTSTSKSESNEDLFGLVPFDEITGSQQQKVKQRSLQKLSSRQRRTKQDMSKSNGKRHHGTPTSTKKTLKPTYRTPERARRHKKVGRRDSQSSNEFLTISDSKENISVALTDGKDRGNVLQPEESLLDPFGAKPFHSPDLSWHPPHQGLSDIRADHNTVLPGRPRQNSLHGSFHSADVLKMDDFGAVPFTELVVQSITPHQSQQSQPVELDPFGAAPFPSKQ
Chain of UniProt Q8TF76 (whole entry, looked up): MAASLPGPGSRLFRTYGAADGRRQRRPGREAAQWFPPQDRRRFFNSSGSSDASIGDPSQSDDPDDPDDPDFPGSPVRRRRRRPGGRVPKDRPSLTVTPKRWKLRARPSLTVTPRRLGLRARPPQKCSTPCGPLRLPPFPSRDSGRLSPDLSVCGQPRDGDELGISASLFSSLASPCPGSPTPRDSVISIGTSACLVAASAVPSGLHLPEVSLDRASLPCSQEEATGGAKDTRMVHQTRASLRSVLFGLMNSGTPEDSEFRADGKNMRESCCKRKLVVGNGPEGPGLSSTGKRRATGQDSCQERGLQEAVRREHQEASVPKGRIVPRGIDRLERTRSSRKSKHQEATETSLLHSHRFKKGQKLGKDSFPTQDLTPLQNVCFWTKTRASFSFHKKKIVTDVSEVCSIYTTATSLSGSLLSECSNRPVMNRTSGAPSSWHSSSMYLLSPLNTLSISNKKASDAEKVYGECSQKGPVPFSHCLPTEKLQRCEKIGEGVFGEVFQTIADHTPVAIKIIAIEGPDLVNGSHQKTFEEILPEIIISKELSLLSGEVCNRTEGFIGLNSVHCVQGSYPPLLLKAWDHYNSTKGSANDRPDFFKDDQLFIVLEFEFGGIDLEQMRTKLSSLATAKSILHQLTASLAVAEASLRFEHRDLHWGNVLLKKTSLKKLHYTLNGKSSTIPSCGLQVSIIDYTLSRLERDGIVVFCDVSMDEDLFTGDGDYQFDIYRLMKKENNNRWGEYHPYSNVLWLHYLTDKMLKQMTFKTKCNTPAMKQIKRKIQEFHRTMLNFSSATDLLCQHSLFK
Chain of UniProt O95382 (whole entry, looked up): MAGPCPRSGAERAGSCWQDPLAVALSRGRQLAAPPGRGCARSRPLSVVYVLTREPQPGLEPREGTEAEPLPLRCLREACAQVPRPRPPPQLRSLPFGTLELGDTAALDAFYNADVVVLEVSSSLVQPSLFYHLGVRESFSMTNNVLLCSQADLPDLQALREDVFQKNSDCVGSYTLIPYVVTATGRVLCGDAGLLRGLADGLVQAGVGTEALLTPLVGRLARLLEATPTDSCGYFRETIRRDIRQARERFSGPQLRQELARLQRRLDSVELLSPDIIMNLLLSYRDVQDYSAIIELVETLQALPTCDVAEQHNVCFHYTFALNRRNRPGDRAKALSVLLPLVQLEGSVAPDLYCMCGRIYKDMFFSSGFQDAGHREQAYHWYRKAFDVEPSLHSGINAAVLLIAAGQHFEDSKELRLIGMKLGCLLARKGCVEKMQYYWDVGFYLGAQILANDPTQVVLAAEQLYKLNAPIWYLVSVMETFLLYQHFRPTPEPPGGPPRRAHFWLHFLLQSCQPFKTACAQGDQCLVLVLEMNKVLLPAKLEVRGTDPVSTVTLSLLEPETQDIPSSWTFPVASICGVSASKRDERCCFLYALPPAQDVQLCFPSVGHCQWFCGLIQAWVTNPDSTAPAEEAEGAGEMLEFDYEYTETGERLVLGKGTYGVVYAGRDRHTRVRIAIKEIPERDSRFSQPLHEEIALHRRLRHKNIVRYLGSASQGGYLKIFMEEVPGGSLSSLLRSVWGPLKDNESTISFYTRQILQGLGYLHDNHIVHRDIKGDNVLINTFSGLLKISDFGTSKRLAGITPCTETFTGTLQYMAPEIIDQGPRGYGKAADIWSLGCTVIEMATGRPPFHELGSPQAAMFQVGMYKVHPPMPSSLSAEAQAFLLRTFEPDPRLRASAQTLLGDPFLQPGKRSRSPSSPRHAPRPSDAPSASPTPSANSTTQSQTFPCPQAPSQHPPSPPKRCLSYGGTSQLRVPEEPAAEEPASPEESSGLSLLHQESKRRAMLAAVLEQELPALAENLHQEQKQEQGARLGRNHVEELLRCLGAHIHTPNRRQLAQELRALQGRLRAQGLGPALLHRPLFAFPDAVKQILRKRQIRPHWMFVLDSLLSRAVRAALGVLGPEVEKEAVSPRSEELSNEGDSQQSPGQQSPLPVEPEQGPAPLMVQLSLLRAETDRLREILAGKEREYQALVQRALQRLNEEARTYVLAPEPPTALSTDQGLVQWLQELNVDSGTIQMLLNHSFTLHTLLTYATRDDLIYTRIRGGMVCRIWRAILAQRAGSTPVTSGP
Chain of UniProt P52333 (whole entry, looked up): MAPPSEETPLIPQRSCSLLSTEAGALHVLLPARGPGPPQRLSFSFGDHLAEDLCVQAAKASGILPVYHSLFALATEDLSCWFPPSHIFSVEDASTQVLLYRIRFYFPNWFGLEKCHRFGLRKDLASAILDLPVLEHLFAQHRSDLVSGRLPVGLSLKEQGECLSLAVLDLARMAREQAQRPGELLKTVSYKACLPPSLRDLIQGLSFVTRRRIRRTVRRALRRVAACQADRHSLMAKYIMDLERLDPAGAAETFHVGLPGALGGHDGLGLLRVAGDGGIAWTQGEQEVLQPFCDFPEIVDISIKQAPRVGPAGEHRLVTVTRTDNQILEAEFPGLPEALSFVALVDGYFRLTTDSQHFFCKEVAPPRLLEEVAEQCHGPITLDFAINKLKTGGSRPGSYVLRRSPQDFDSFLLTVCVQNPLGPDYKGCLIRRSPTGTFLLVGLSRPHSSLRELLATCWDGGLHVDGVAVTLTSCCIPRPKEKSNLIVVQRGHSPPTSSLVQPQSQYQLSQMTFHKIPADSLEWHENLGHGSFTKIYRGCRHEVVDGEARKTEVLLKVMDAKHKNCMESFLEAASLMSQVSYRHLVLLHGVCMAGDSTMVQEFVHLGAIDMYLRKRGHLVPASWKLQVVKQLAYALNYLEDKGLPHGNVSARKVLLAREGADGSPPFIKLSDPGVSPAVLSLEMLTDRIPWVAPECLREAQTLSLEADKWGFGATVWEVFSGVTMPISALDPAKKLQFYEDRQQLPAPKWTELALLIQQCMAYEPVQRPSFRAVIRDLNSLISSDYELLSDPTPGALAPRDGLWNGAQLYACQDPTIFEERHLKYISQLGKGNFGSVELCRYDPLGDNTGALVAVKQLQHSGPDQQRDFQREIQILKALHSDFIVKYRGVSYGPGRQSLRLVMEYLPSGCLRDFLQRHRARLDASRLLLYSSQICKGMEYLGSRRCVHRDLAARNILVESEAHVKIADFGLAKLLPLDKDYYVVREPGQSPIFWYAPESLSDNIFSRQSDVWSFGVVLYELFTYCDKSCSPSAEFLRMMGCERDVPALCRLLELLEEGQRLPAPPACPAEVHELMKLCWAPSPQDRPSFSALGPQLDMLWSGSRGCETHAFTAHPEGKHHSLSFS
Chain of UniProt Q16816 (whole entry, looked up): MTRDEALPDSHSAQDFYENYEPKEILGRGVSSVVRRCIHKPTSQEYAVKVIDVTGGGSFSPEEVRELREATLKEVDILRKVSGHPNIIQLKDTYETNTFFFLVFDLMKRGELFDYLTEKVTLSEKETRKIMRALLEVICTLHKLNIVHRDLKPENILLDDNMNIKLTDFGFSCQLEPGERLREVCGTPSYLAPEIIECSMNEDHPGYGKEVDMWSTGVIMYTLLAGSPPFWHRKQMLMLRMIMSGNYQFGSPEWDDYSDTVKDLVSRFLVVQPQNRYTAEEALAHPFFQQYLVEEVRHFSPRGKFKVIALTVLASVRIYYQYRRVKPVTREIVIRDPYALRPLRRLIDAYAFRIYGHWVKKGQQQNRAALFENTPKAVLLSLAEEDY
Chain of UniProt Q9UQB9 (whole entry, looked up): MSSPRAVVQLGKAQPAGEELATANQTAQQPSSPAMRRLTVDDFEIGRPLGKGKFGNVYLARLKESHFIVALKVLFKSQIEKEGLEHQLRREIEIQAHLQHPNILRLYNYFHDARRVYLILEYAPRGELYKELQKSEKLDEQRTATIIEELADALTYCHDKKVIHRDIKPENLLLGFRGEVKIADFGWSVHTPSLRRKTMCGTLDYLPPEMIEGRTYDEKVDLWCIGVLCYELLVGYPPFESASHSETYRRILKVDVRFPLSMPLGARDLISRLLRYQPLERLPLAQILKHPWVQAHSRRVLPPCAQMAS

Sample 1
Compound: CC(=O)N[C@@H](Cc1c[nH]c2ccccc12)C(=O)N[C@@H](CCC(=O)C=[N+]=[N-])C(=O)OC(C)C
Route: subcutaneous
Dose: 0.3 mg/kg/day DON equivalent
Time: 5 days
Reading: higher = more metabolite
Measurement: metabolite peak area
UPLC-MS/MS metabolomics, refers to: ergothioneine; EL4, C57BL/6 CES1-/- mice, EL4 tumour, tumour: 9.58e+07 a.u. and 1.54e+08 a.u. and 1.14e+08 a.u. and 9.79e+07 a.u. and 8.29e+07 a.u. and 1.24e+08 a.u.
UPLC-MS/MS, refers to: AICA ribonucleotide; C57BL/6 CES1-/- mice, EL4 tumour: 557000 a.u. and 365000 a.u. and 820000 a.u. and 855000 a.u. and 460000 a.u. and 299000 a.u.
UPLC-MS/MS, refers to: 5'-GMP; C57BL/6 CES1-/- mice, EL4 tumour: 1.14e+07 a.u. and 3.1e+07 a.u. and 1.44e+07 a.u. and 3.6e+07 a.u. and 3.51e+07 a.u. and 2.47e+07 a.u.
UPLC-MS/MS metabolomics, refers to: cystine; EL4, C57BL/6 CES1-/- mice, EL4 tumour, tumour: 2.28e+06 a.u. and 2.38e+06 a.u. and 1.43e+07 a.u. and 6.27e+06 a.u. and 6.51e+06 a.u. and 6.16e+06 a.u.

Sample 2
Compound: COc1ccc2c(c1)O[C@@H](c1ccc(OC)c(OC)c1)C[C@H]2NC(=O)C1(c2ccc3c(c2)OC(F)(F)O3)CC1
Method: competition with immobilised ligand
Tested at: 1 µM
Measurement: remaining binding
ALK (Homo sapiens, UniProt Q9UM73, L1196M); cell-free assay: 90%
EIF2AK1 (Homo sapiens, UniProt Q9BQI3); cell-free assay: 98%
Aurora kinase C (AURKC, Homo sapiens, UniProt Q9UQB9); cell-free assay: 100%
Tyrosine-protein kinase ABL1, non-phosphorylated (ABL1, Homo sapiens, UniProt P00519, H396P); cell-free assay: 85%
PRKG2 (Homo sapiens, UniProt Q13237); cell-free assay: 96%
GRK4 (Homo sapiens, UniProt P32298); cell-free assay: 92%
Myosin-IIIb (MYO3B, Homo sapiens, UniProt Q8WXR4); binding: 100%
BMP2K (Homo sapiens, UniProt Q9NSY1); cell-free assay: 100%
PTK2 (Homo sapiens, UniProt Q05397); cell-free assay: 94%
PHKG1 (Homo sapiens, UniProt Q16816); cell-free assay: 100%
Tyrosine-protein kinase JAK3, JH1 (JAK3, Homo sapiens, UniProt P52333); cell-free assay: 88%
MERTK (Homo sapiens, UniProt Q12866); cell-free assay: 95%
DSTYK (Homo sapiens, UniProt Q6XUX3); cell-free assay: 76%
HASPIN (Homo sapiens, UniProt Q8TF76); cell-free assay: 81%
FLT3 (Homo sapiens, UniProt P36888, K663Q); cell-free assay: 100%

Sample 3
Cell line: mouse MPNST tumor cells
Method: high-content immunofluorescence imaging
Refers to: nuclear SOX9
Tested at: 10 µM
Time: 12 h
Setting: mean of 2 replicates
Reference: DMSO control
Reading: higher = more nuclear SOX9
Measurement: nuclear SOX9 intensity
Cc1nc(NC(=O)N2CCCC2C(N)=O)sc1-c1csc(C(C)(C)C)n1 (stereo not shown): 60.7 % of DMSO
CCC1(c2ccccc2)C(=O)NCNC1=O: 95.6 % of DMSO and 99.5 % of DMSO
CC1COc2c(N3CCN(C)CC3)c(F)cc3c(=O)c(C(=O)O)cn1c23 (stereo not shown): 100 % of DMSO
CN1C[C@H](Nc2cnn(C)c(=O)c2Br)C[C@H](c2ccccc2)C1: 93.3 % of DMSO

Sample 4
SMILES: COc1ccc2[nH]c3c4[nH]c5ccc(OC)cc5c4c4c(c3c2c1)C(=O)NC4=O
Effect on: binding
Tested at: 1 µM
Measurement: remaining binding
MAP3K13 (Homo sapiens, UniProt O43283); competition with immobilised ligand: 77%
MAP3K4 (Homo sapiens, UniProt Q9Y6R4); competition with immobilised ligand: 100%
MAP3K6 (Homo sapiens, UniProt O95382): 86%

Sample 5
SMILES: CC(C)n1cnc(-c2ccc(F)cc2)c1-c1ncc(C(=O)Nc2ccc(N3CCN(C)CC3)cc2)[nH]1
Measurement: patients with TEAE
phase 2a trial; idiopathic pulmonary fibrosis patients; oral, dose not given, ESR increased, grade 4, all arms: 0%
refers to: interferon gamma increased; idiopathic pulmonary fibrosis patients; 30 mg once daily: 0%
phase 2a trial; patients with idiopathic pulmonary fibrosis; 60 mg once daily, endocrine disorders SOC, grade 1: 0%
refers to: nervous system disorders; idiopathic pulmonary fibrosis patients; 30 mg once daily: 0%
phase 2a trial; patients with idiopathic pulmonary fibrosis; 30 mg once daily, atopic dermatitis, grade 2: 0%

Excerpt of the above (sample 2):
GRK4 (Homo sapiens, UniProt P32298); cell-free assay: 92%
Myosin-IIIb (MYO3B, Homo sapiens, UniProt Q8WXR4); binding: 100%
BMP2K (Homo sapiens, UniProt Q9NSY1); cell-free assay: 100%
PTK2 (Homo sapiens, UniProt Q05397); cell-free assay: 94%
